Measurements of several laboratories.
Parts stem from different laboratories: compare values within a part only. Substitutions count along the parent as printed.

Study 1
Target: ABI1, truncated, D143A, DHFR fusion (Arabidopsis thaliana)
Technique: DHFR PCA, deep sequencing
Medium: yeast
Setting: methotrexate growth selection, single substitutions
Together with: (+)-ABA 710 µM
Reference: wild-type fitted maximum
Reading: higher = stronger binding
Starting sequence: PYL1, truncated, DHFR fusion (Arabidopsis thaliana); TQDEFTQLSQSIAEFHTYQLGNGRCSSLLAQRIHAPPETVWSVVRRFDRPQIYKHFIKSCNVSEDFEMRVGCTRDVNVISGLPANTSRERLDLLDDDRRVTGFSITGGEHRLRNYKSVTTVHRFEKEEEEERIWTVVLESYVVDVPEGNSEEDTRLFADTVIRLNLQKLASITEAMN
Change | relative binding score [%]
N114E | 84.4
E139N | 95.6
S117N | 52.2
I105V | 105
G102W | 21.1
T101K | 38.1
R74D | -2.23
D92I | 85.6
D3Q | 96.4
F15G | 43.2
Q7C | 105
F103C | 15.1
A13N | 90.5
E151A | 103
G21L | 95.6
T101G | 49.3
R98M | 103
T1Q | 104

Study 2
Target: CCNA2, cyclin fold, Cln2 fusion (human)
Technique: yeast growth competition, sequencing
Medium: yeast
Setting: weak parent motif
Reference: not given
Reading: higher = stronger binding
Starting sequence: SLBP docking peptide (human); ARYKRKLLINDFG
Change | normalised enrichment score
K4R | 1.09
L8V | 1.53
Y3F | 1.04
D11A | 2.11
K6Q | 1.65
I9E | 1.23
K6E | 1.54
G13P | 1.24
N10H | 1.05
L8R | 0.629
F12C | 0.542
K4S | 0.238
F12D | 0.362
Y3G | 0.509
D11G | 1.2
F12Y | 1.7
K6I | 1.07
L8I | 1.5
N10R | 0.906

Study 3
Target: BATF2, bZIP domain (human)
Technique: DHFR protein complementation
Medium: yeast
Setting: single substitutions, most at no-binding floor
Reference: wild-type JUN-FOS pair
Reading: higher = stronger binding
Starting sequence: JUN, bZIP domain (human); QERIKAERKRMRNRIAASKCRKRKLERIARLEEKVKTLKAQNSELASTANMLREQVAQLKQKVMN; partner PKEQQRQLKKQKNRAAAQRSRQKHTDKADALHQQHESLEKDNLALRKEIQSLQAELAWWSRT
Change | binding fitness
V56G | -1.35 natural log
M51K | -0.176 natural log
R53P | -1.32 natural log
K39I | -0.392 natural log
V56E | -1.53 natural log
R30P | -0.527 natural log
K36P | -1.35 natural log
L45Y | -1.08 natural log
R30E | -0.0187 natural log
E54F | -0.786 natural log
M51V | -0.334 natural log
T48Y | -0.298 natural log
A46R | -0.14 natural log
L59V | -0.0559 natural log
L45C | -1.52 natural log
A57L | -0.534 natural log
L52F | -1.35 natural log
V56K | -1.32 natural log
T37Y | -0.224 natural log
Q41K | -0.473 natural log
S47Q | -0.12 natural log
R53G | -1.26 natural log
V56R | -1.25 natural log

Study 4
Target: RNA binding protein fox-1 homolog 2, RRM domain, GST-SBP tag (RBFOX2, Homo sapiens, UniProt O43251-10, residues 100-194)
Technique: RNA Bind-n-Seq
Molecule type: RNA
Medium: in vitro
Concentration: 365 nM
Setting: natural RNA segment, single round, ends assumed
Reference: no-protein control
Reading: higher = stronger binding
All sequences stand within: GGGAGUUCUACAGUCCGACGAUC … UGGAAUUCUCGGGUGCCAA
Residues (chain): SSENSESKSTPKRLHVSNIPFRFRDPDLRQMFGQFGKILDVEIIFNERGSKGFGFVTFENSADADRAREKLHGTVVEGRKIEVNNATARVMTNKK
Strand | RBNS enrichment (R)
GAAAUGCCAUCUUAUUACCUGAGACGACCAGCACUGGGAGUUAGGUACGGUCUGAAGUUAUGUCUAGAUAAGACUUCAGACGUCCUGGGAUUGAAAGAAUGUGUGUGAAG | 0.694
GCCCCUCAGCCCAGCAGCCUGGGCUCCCAGUGCUGAGGCCCUCUGUUCAGGCCUCCGCCCACCCUGAGUGGAAUGGAGCCAUGCAUUCAGUAAACUGACUUUAUUCUCCC | 0.378
UGACAGGAUCCACAGACUUCUCCAGGACCUUCCAGAGACCCUGCCAGCUGUUAGAGGACAGAGCCAGCUCAGUAGGACCUCCUGCUCCUCCCCCCGGCUUCGUGCCCUUU | 0.403
GAAAGCAGUGCCUGCCAGCUGUUGUGCACCUUCCUGAGAAAUAAAUAUCCUCUAAAUUUUCAAACCAUCCUGUCUGGUGUUGGUUGAUUAGGUUGUGUCUGUGGGAACCA | 0.829
GCCUACCUCUCCACAAGGGGAUUUUGCUGAUGGGUUCUUAGAGCCUUAGCAGCCCUGGAUGGUGGCCAGAAAUAAAGGGACCAGCCCUUCAUGGGUGGUGACGUGGUAGU | 0.282
UAUCCAGUGCUUGCCCUCGGAGUGUCUUUAAAUGCACCAAGUGUACAAUAAAAACAUGGAAGUCAAUCCUAGGAGCCUCUUGUUUGUGUCUCAUGGACACAGUCGGCACC | 0.294
UUCUACUUUGAUAUGACUGUUUUUCGGACAGUUUAUUUGUUGAGAGUGUGACCAAAAGUUACAUGUUUGCACCUUUCUAGUUGAAAAUAAAGUGUAUAUUUUUUCUAUAA | 0.845
CUCUCUUGGGGACUCUCAAGAGCCUGUGUUCAUCUAGAAGUAGUAGUUUGAUUCUGGUUUCCCUCCUACAGUGUGUCCUCCGUCUCUGUGCAGCUCCGUCAUUACCAUAG | 0.54
UUCAAAGGGGCAACAGUGAUACCAUCCCUGCACUCCUGGGUCCUGCUCUUCCAAUGCCCAAGGCAUGGCAUGGUGGCAGCUGUGCCCCCGCCCAUUGCUUUGGAGCACAG | 0.238
GGAGAAAGCAAUAUUGUUAGAUCAGAUUAUAAAUUUGUUAAGUUUAAAGAUUCCUGGCAUACAGGCCUGCUCUAUAAAUUUGUUUUCCCCUUCCCUGCCAGCAGUCUUCU | 0.374
UGCCAGAACUUACGCAUCCAAUGUGGGUUGUCACUUGUUAUUCCCAAGUACUAUUAUUCCAUACUACUAUAUUCUUCCAAAUAUUUGGAACACUCUUAGAAUUCCCAUUU | 1.22
GGAGACUCGAAUGAUACCAAGAUAAUACAGAUAUUAUUAAGAAUUUUUUUGUGUUGAGGUGAUGUAGAUAAAUGUAUUUAUAUGCCUAGUUGGAUAUUCAAUAUUAUGAA | 0.494

Study 5
Partner: ARF18 482-602 (Arabidopsis thaliana, UniProt Q9C5W9)
Technique: two-hybrid
Reference: out of 4 tests
Reading: higher = firmer interaction
B1: IAA33 (Arabidopsis thaliana, UniProt Q9FKM7); chain MNSFEPQSQDSLQRRFHQDNSTTQQPRDTTTPFIPKPASKNHNNSNSSSGAAGRSFQGFGLNVEDDLVSSVVPPVTVVLEGRSICQRISLDKHGSYQSLASALRQMFVDGADSTDDLDLSNAIPGHLIAYEDMENDLLLAGDLTWKDFVRVAKRIRILPVKGNTRQVKRNE
B2: ARF2 727-859 (Arabidopsis thaliana, UniProt Q94JM3); chain TKTNSSRSCTKVHKQGIALGRSVDLSKFQNYEELVAELDRLFEFNGELMAPKKDWLIVYTDEENDMMLVGDDPWQEFCCMVRKIFIYTKEEVRKMNPGTLSCRSEEEAVVGEGSDAKDAKSASNPSLSSAGNS
B3: ARF7 1030-1164 (Arabidopsis thaliana, UniProt P93022); chain PAQTQRMRTYTKVQKRGSVGRSIDVNRYRGYDELRHDLARMFGIEGQLEDPQTSDWKLVYVDHENDILLVGDDPWEEFVNCVQSIKILSSAEVQQMSLDGNFAGVPVTNQACSGGDSGNAWRGHYDDNSATSFNR
B4: IAA28 (Arabidopsis thaliana, UniProt Q9XFM0); chain MEEEKRLELRLAPPCHQFTSNNNINGSKQKSSTKETSFLSNNRVEVAPVVGWPPVRSSRRNLTAQLKEEMKKKESDEEKELYVKINMEGVPIGRKVNLSAYNNYQQLSHAVDQLFSKKDSWDLNRQYTLVYEDTEGDKVLVGDVPWEMFVSTVKRLHVLKTSHAFSLSPRKHGKE
B5: ARF5 788-902 (Arabidopsis thaliana, UniProt P93024); chain ATPRVRTYTKVQKTGSVGRSIDVTSFKDYEELKSAIECMFGLEGLLTHPQSSGWKLVYVDYESDVLLVGDDPWEEFVGCVRCIRILSPTEVQQMSEEGMKLLNSAGINDLKTSVS
B6: ARF8 699-811 (Arabidopsis thaliana, UniProt Q9FGV1); chain NSSNQTKNFVKVYKSGSVGRSLDISRFSSYHELREELGKMFAIEGLLEDPLRSGWQLVFVDKENDILLLGDDPWESFVNNVWYIKILSPEDVHQMGDHGEGSGGLFPQNPTHL
B7: IAA32 (Arabidopsis thaliana, UniProt Q8RYC6); chain MDPNTPADFFKGSSKFHTYYSQTKKGGGVIDLGLSLRTIQHETYLPPARMIGLDGYGELIDWSQPSYNSITQLKSEDTGHQRLAQGYYNNEGESRGKYAYVKVNLDGLVVGRKVCLVDQGAYATLALQLNDMFGMQTVSGLRLFQTESEFSLVYRDREGIWRNVGDVPWKEFVESVDRMRIARRNDALLPF
B8: ARF13 (Arabidopsis thaliana, UniProt Q9FX25); chain MENNGEMNAQPELSVDITKTYMYEKLWNICAGPLCVLPKPGEKVYYFPQGHIELIENSTRDELDHIRPIFDLPSKLRCRVVAIDRKVDKNTDEVYAQISLMPDTTEVMTHNTTMDTRRPIVYFFSKILTASDVSLSGGLIIPKQYAIECFPPLDMSQPISTQNLVAKDLYGQEWSFKHVFRGTPQRHMFTSGGGWSVFATTKRLIVGDIFVLLRGENGELRFGIRRAKHQQGHIPSSVISANCMQHGVIASVVNAFKTKCMFNVVYKPSSSQFVISYDKFVDAMNNNYIVGSRFRMQFEGKDFSEKRYDGTIIGVNDMSPHWKDSEWRSLKVQWDELSPFLRPNQVSPWDIEHLIPSSDISQSSLKKKKHWLQLNEIGATLSNLWTCQEIGQRSMNSPISVPEFSYPNAIEDSKFLSGLLLNHSLLAIPNENYNSDQMIQPRKEDITTEATTSCLLFGVDLTKVSKSKDSICPIESCKKSLPQDKKFDQTQPLRSPKEVQSTEFNFTRSRIKVHMQGVAISRAVDLTAMHGYNQLIQKLEELFDLKDELRTRNQWEIVFTNNEGAEMLVGDDPWPEFCNMAKRIFICSKEEIKKMKLKNKFFQPESKALTSSDVPPNVTDN
B9: IAA34 (Arabidopsis thaliana, UniProt Q9C5X0); chain MYCSDPPHPLHLVASDKQQKDHKLILSWKKPTMDSDPLGVFPNSPKYHPYYSQTTEFGGVIDLGLSLRTIQHEIYHSSGQRYCSNEGYRRKWGYVKVTMDGLVVGRKVCVLDHGSYSTLAHQLEDMFGMQSVSGLRLFQMESEFCLVYRDEEGLWRNAGDVPWNEFIESVERLRITRRNDAVLPF
Construct (chain): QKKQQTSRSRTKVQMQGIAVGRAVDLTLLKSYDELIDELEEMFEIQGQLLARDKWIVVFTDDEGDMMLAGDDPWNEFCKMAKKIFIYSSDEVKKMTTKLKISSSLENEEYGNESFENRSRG
Sequence | positive tests
B1 (IAA33) | 2
B2 (ARF2 727-859) | 0
B3 (ARF7 1030-1164) | 0
B4 (IAA28) | 1
B5 (ARF5 788-902) | 1
B6 (ARF8 699-811) | 0
B7 (IAA32) | 2
B8 (ARF13) | 0
B9 (IAA34) | 3

Study 6
Target: Probable WRKY transcription factor 33, N-terminal DNA-binding domain (WRKY33, Arabidopsis thaliana, UniProt Q8S8P5, residues 169-264)
Technique: DNA-protein interaction ELISA
Molecule type: double-stranded DNA, one strand shown
Medium: in vitro, bacterial lysate
Concentration: not given
Setting: whole dsDNA probe, crude lysate protein
Reference: highest signal in screen
Reading: higher = stronger binding
Construct (chain): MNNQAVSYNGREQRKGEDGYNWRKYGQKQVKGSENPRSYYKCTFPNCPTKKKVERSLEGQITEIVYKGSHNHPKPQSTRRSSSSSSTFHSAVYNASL
Strand | relative absorbance
AAAAAACTCCCTCTCCTCTGTCTTCCAAAA | 22.2 % of maximum
AAAAAACCCCAGATTTCCAGCAGTTCAAAA | 21.1 % of maximum
AAAAAATGGTACTCAGAGTTATAGACAAAA | 22.8 % of maximum
AAAAAATCCTATCTTGGCTTTGGCCTAAAA | 22.9 % of maximum
AAAAAAGCTCGTCTCCGCCTCCTGCTAAAA | 21.3 % of maximum
AAAAAAGTCTGCGTCCTACCCCATTCAAAA | 40.4 % of maximum
AAAAAATGTATTCGTGTCCACTCCATAAAA | 15.4 % of maximum
AAAAAAGCATATCTTCAGAACTTGCCAAAA | 21.6 % of maximum
AAAAAAGTTATTATACCTGATCTCGCAAAA | 25.4 % of maximum
AAAAAAGCTCATGGCCCTGAGGATCTAAAA | 22.2 % of maximum
AAAAAATATCTGATCCAATTTAGGTCAAAA | 24.3 % of maximum
AAAAAAGTCTAAGGACTTATAGCTGTAAAA | 43.1 % of maximum
AAAAAAGTTTCTGCTTTCCCTTTCGTAAAA | 24.2 % of maximum
AAAAAAATTTTTAGTTTTAATTTTGGAAAA | 30.4 % of maximum
AAAAAAGGCCACGGTAACCCCTTTTGAAAA | 21.7 % of maximum
AAAAAAGATTGACTCGTCTTACTCGAAAAA | 100 % of maximum
AAAAAAGAGAATTGTCAGTGCCCAACAAAA | 24.4 % of maximum
AAAAAACGCAACTCCGGATGTGGGGTAAAA | 14.6 % of maximum
AAAAAATTCAGAGCTTCGAGGTTCCGAAAA | 21.3 % of maximum

Excerpt of the above (study 3):
Change | binding fitness
R30P | -0.527 natural log
K36P | -1.35 natural log
L45Y | -1.08 natural log
R30E | -0.0187 natural log
E54F | -0.786 natural log
M51V | -0.334 natural log
T48Y | -0.298 natural log
A46R | -0.14 natural log
L59V | -0.0559 natural log
L45C | -1.52 natural log
A57L | -0.534 natural log
L52F | -1.35 natural log
